# Measured values pooled from the literature.
# Each line is one published result; not all experiments were run side by side. Several values in a cell are separate wells, animals, samples, runs or records. ± gives the spread as reported.
SMILES,assay,test system,conditions,scale,endpoint,value
CN1CCN(C(=O)c2ccc(C3CCCCC3)cc2)CC1,liver microsome stability,human liver microsomes,"1 µM, without NADPH",,hepatic clearance,3.9 mL/min/kg
Cl.[2H]C([2H])([2H])CC(=O)c1cnc(NC(=O)C2CC2)cc1Nc1cccc(-c2ncn(C([2H])([2H])[2H])n2)c1OC,median,human,"oral, 5 mg single dose, fasted, liquid",,Tmax,45 min
COc1cccc(-c2n[nH]c(SCc3ccccn3)n2)c1OC,,"Sprague-Dawley rat, plasma","oral, 30 mg/kg",baseline: female over male,Cmax ratio,0.89
Cc1c(C(=O)O)ccc2c3n(nc12)[C@@H]1[C@H](C3)N(CC2CC2)[C@@]2(C(=O)Nc3cc(Cl)ccc32)[C@H]1c1cccc(Cl)c1F,"phase Ia trial, item: Pyrexia",cancer patients,"oral, dose not given",,adverse event incidence,16%
NC1(C(=O)N[C@@H](CCO)c2ccc(Cl)cc2)CCN(c2nc[nH]c3nccc2-3)CC1,,metastatic CRPC patients,"320 mg b.i.d., any grade, treatment-related, added: enzalutamide 160 mg daily",,incidence of SIRS,0%
COCCN(C)C(=O)c1ccc([C@H]2[C@@H](F)[C@@H](F)C[C@@H](F)[C@H]2F)cc1,hepatocyte stability,cryopreserved rat hepatocytes,1 µM,,hepatic clearance,33 mL/min/kg
CCOc1c([C@H](C)n2nc(C)c3c(N)ncnc32)cc(Cl)c(F)c1[C@@H]1CNC(=O)C1,,"patients with B-cell malignancies, plasma","oral, 30 mg once daily, cycle 1 day 15, monotherapy",,Cmin,287 nM
C[C@@H](N)C1CCN(S(=O)(=O)c2cccc3cnccc23)CC1,,healthy volunteers,"150 mg, fasted",,participants with mental impairment,0%
COCCC(=O)Nc1ccc(C2CCCCC2)cc1,liver microsome stability,human liver microsomes,"1 µM, without NADPH",,hepatic clearance,18 mL/min/kg
Cc1ccc(Sc2ccccc2N2CCNCC2)c(C)c1,item: Diarrhea,healthy adult women,"oral, 5 mg daily, 12 days",,participants with TEAE,0%
O=C(O)c1cc(O)c(O)c(O)c1,,"chicken broilers, serum","oral, 2000 mg/kg feed, free compound, chestnut tannin diet",,serum concentration,~350 nM
CNCCOC12CC3(C)CC(C)(CC(Cn4ncc(-c5ccc(N6CCc7cccc(C(=O)Nc8nc9ccccc9s8)c7C6)nc5C(=O)O)c4C)(C3)C1)C2,,"beagle dog, male, anaesthetised","intravenous bolus, 0.03 mg/kg, 45 min",baseline: baseline,dP/dt at 50 change,1%
C[C@@H]1CN(CC(=O)N2CC(C)(C)c3ncc(Cc4ccc(F)cc4)cc32)[C@@H](CN2CCOC[C@H]2C)CN1,,human liver microsomes,1 µM,,intrinsic clearance,130 ± 25 µL/min/mg
CCc1c(-c2ccccc2)c(-c2ccccc2)nn1-c1ccccc1-c1cccc(OCC(=O)O)c1,,"Sprague-Dawley rat, stomach homogenate","oral, 10 mg/kg, 8 h",,concentration,154 ng/mL and 119 ng/mL
O=C(NCC1CCOCC1)c1ccc([C@H]2[C@@H](F)[C@@H](F)C[C@@H](F)[C@H]2F)cc1,liver microsome stability,mouse liver microsomes,1 µM,,hepatic clearance,14 mL/min/kg
COc1cc(C(=O)N2CCC3(CC2)CC(=O)c2c(cnn2C(C)C)C3)cc(-c2ccc(C(=O)O)cc2)n1,item: HDL cholesterol,"human, fasting serum","100 mg every 12 h, day 13, adjusted geometric mean",baseline: baseline and placebo,placebo-adjusted change from baseline,-19.6%
C=CCn1c(=O)c2cnc(Nc3ccc(N4CCN(C)CC4)cc3)nc2n1-c1cccc(C(C)(C)O)n1,,human patients,"oral, 150 mg twice daily, monotherapy, -5 day lead-in",,AUC(0-10 h),5.22 µM·h
CNC(=O)c1ccc(-c2cnc3ncc(Cc4ccc5ncccc5c4)n3n2)cc1F,"item: Nausea, all grades",hepatocellular carcinoma patients,"oral, 600 mg twice daily, expansion cohort, any causality",,patients with adverse event,46%
Cc1cn(C(=O)c2c(-c3c(Cl)cc(Cl)cc3Cl)noc2C(C)(C)F)c2cccc(/C=C/C(=O)O)c12,,human patients,"125 mg bid, cycle 8 day 1",,AUC(0-8h),62300 ng·h/mL
O=C(Cc1cccnc1)Nc1ccc([C@H]2[C@@H](F)[C@@H](F)C[C@@H](F)[C@H]2F)cc1,,cryopreserved rat hepatocytes,1 µM,,hepatic clearance,20 mL/min/kg
Cc1cc(C)c(CNC(=O)c2cc(Cl)c3c(c2C)O[C@@](C)([C@H]2CC[C@H](N(C)C)CC2)O3)c(=O)[nH]1,,"human, plasma","oral, 200 mg",,share of plasma radioactivity,77.1%
CC(=O)N1CC(C(=O)Nc2ccc(C3CCCCC3)cc2)C1,hepatocyte stability,cryopreserved mouse hepatocytes,1 µM,,hepatic clearance,59 mL/min/kg
Cc1cc2sc(N)nc2c2cccnc12,,"female BALB/c mice, plasma","i.p., 30 mg/kg, observed",,AUMC extrapolated,1.69%
O=C(NCc1cc[nH]n1)c1ccc(C2CCCCC2)cc1,hepatocyte stability,cryopreserved mouse hepatocytes,1 µM,,hepatic clearance,81 mL/min/kg
Cc1c(C(=O)O)ccc2c3n(nc12)[C@@H]1[C@H](C3)N(CC2CC2)[C@@]2(C(=O)Nc3cc(Cl)ccc32)[C@H]1c1cccc(Cl)c1F,equilibrium dialysis,"Crl:CD1(ICR) mouse, both sexes, plasma",pH 7.4,,unbound fraction,0.0034
O=S(=O)(c1ccc(-c2ccc3nccc(Nc4ccncn4)c3c2)cc1)N1CCOCC1,,"female BALB/c mice, brain homogenate","intraperitoneal, 10 mg/kg, 0.25 h, mean",,brain concentration,60.4 ng/mL
CCCCCCOC(=O)NC(=N)c1ccc(NCc2nc3cc(C(=O)N(CCC(=O)OCC)c4ccccn4)ccc3n2C)cc1,,human,"oral, 75 mg, compound alone",,participants with TEAE haematoma,8.3%
CN(C(=O)n1cnc(-c2ccc[n+]([O-])c2)c1)[C@H]1CC[C@H](O)CC1,,"Wistar rat, medulla oblongata","oral, 10 mg/kg of BIA 10-2474, 4 h, single dose",,concentration,13.7 ± 0.5 ng/g
CC(C)C[C@@H]1NC(=O)CN(C)C(=O)[C@H](Cc2ccccc2)NCc2ccc(n2C)CNC1=O,PAMPA,lecithin in dodecane,"100 µM, 17 h, pH 6.4, 37 °C",,-log Pe,5.93
O=C(Nc1cnccc1Cl)N1CCN(Cc2ccc3c(c2)OC(F)(F)O3)CC1,item: Presyncope,human healthy young women,"100 mg, multiple dose",,adverse event incidence,0%
CCn1ncc2c1-c1cnc(N)c(c1)O[C@H](C)c1cc(F)ccc1-c1nn(C)nc1C2,,female Balb/c nude mouse,"3 mg/kg twice daily, 6 h (tau/2), steady state",,unbound brain concentration,5.5 ± 2.1 nM
C=CC(=O)NC1CCN(c2ncc3ncnc(Nc4ccc(Oc5ccc6c(c5)ncn6C)c(C)c4)c3n2)CC1,,healthy male humans,"oral, 240 mg",,participants with back pain TEAE,6.3%
O=c1ccc2ccc(O)cc2o1,,human liver microsomes,,,intrinsic clearance,749 µL/min/mg protein
CCO,,human,concentration not given,,TEAE leading to withdrawal,0%
O=c1ccc2c(OCCCCOc3ccccc3)c3ccoc3cc2o1,HPLC-MS,"Lewis rat, plasma","oral gavage, 50 mg/kg daily for 3 months, 24 h post-dose",,trough plasma concentration,350 ± 78 nM
CNCc1ccc(-c2[nH]c3cc(F)cc4c3c2CCNC4=O)cc1,item: Diarrhea,human patients,"oral, dose not given, all grades, all doses",,patients with adverse event,23.2%
N#Cc1ccc2c(c1)[C@H]1CCCN(C(=O)c3ccc4[nH]cnc4c3)[C@H]1C2,,human,"80 mg, day 15",baseline: baseline,cortisol level change,-62 nmol/L
Cc1nc2ccc(F)cc2n1-c1nc(N)c(F)c(Nc2ccc(C(F)(F)F)cc2)n1,,"human patients, plasma","oral, 300 mg twice weekly, cycles 1 and 2 pooled",,dose-normalized Cmax,5.25 ng/mL/mg
O=C(c1ccc([C@H]2[C@@H](F)[C@@H](F)C[C@@H](F)[C@H]2F)cc1)N1CC(O)C1,hepatocyte stability,cryopreserved human hepatocytes,1 µM,,hepatic clearance,6.2 mL/min/kg
CC(=O)O[C@H]1C(=O)[C@@]2(C)[C@H]([C@H](OC(=O)c3ccccc3)[C@]3(O)C[C@H](OC(=O)[C@H](O)[C@@H](NC(=O)c4ccccc4)c4ccccc4)C(C)=C1C3(C)C)[C@]1(OC(C)=O)CO[C@@H]1C[C@@H]2O,item: peripheral oedema,patients with advanced solid tumours,"intravenous, dose not given, grade 3 and 4, possibly related to drug",,adverse event incidence,0%
O=C(Nc1nc2cccc(-c3ccc(CN4CCS(=O)(=O)CC4)cc3)n2n1)C1CC1,item: gastrointestinal pain,human rheumatoid arthritis patients,"oral, 30 mg once daily, 4 weeks, regardless of relatedness",,treatment-emergent adverse events,0%
CCN1/C(=C/C(C)=O)Sc2ccc(F)cc21,,cynomolgus monkey,"oral, 10 mg/kg, 24 h post-dose",baseline: pre-dose,PR interval change,99.8 ± 4.4%
NS(=O)(=O)c1cc(C(=O)O)c(NCc2ccco2)cc1Cl,item: infections and infestations,healthy men,"oral, 8 days, treatment-emergent, crossover trial",,subjects with adverse event,0%
C[C@H]1CNCCN1c1nccc(-c2noc3c2CCC[C@@]32CCCc3sc(N)c(C#N)c32)n1,,mouse,"po, 50 mg/kg",,AUC(0-last),42.3 µM·h
COc1ccnc(C(=O)N[C@H]2COC(=O)[C@H](Cc3ccccc3)[C@@H](O)[C@H](C)OC2=O)c1O,soil adsorption,tested soils,geometric mean,,KFoc,673 mL/g
C=CC(=O)Nc1cc(Nc2nccc(Nc3cc(Cl)c(F)cc3C(C)(C)O)n2)c(OC)cc1N1CC[C@@H](N(C)C)C1,,"male Han Wistar rat, brain","intravenous infusion, 2 µmol/kg/h, 4 h",baseline: plasma,tissue/plasma ratio,0.25 ± 0.05
CN1C(=O)[C@@H](NC(=O)c2nnc(Cc3ccccc3)[nH]2)COc2cccnc21,phase I single ascending dose,"human, male and female","oral, 200 mg, fasted",,participants with any AE of special interest,0%
Cc1ccc([C@@H]2O[C@H](CO)[C@@H](O)[C@H](O)[C@H]2O)cc1Cc1ccc(-c2ccc(F)cc2)s1,,Japanese type 2 diabetes patients,"200 mg, day 18, 24 h urine collection",baseline: baseline,urinary calcium excretion change,-28.5 mg
COc1ccc2c(c1)CN(C(=O)CCN1CCC(Cc3ccccc3)CC1)CC[S@@+]2[O-],telemetry,conscious dog,"intravenous, 2 mg/kg, 1 h",,heart rate,95 ± 19 beats/min
N#Cc1ccc2c(c1)[C@H]1CCCN(C(=O)c3ccc4[nH]cnc4c3)[C@H]1C2,,"human, plasma","oral, 20 mg once daily, steady state",,Vz/F steady state,434 L
Cc1ccc(C)c(OCCCC(C)(C)C(=O)O)c1,,"human, plasma","oral, dose not given, day 14 predose, median",,trough plasma concentration,1700 ng/mL
CN1CCN(C(=O)[C@H](CCCN[C@@H]2C[C@H]2c2ccc(F)cc2)NC(=O)c2ccc(-n3ccnn3)cc2)CC1,,Sprague-Dawley rats,"20 mg/kg/day, 7 days, reversibility after two 7-day cycles",,monocyte count,increased
C=CC(=O)Nc1cc(Nc2nccc(-c3cn(C4CC4)c4ccccc34)n2)c(OC)cc1N(C)CCN(C)C,autosampler stability,rat plasma,"1 ng/mL, 4 h, 10 °C",baseline: nominal concentration,relative error,-7.7%
COc1ccnc(C(=O)NCC(=O)O)c1O,soil adsorption,clay soil,"pH 7.6, organic carbon 1.7 %",,KFoc,364 mL/g
NC[C@@]1(CC(=O)O)[C@@H]2CC[C@H]3C[C@@H]2[C@@H]1C3,,"human, moderate renal impairment, plasma","dose not given, geometric mean",,unbound AUC(0-t),3450 ng·h/mL
CC(C)(c1ccc(O)cc1)c1ccc(O)cc1,,whole cow milk,200 nM nominal,,dose fraction in skim milk,56.8%
CC(C)(C(=O)N1CCOc2c(C#N)cncc2C1)C(F)F,item: Investigations,human,"oral, 20 mg twice daily, 14 days, multiple ascending dose",,subjects with adverse event,12.5%

# Repeated from above:
SMILES,assay,test system,conditions,scale,endpoint,value
COCCC(=O)Nc1ccc(C2CCCCC2)cc1,liver microsome stability,human liver microsomes,"1 µM, without NADPH",,hepatic clearance,18 mL/min/kg
CCN1/C(=C/C(C)=O)Sc2ccc(F)cc21,,cynomolgus monkey,"oral, 10 mg/kg, 24 h post-dose",baseline: pre-dose,PR interval change,99.8 ± 4.4%
NS(=O)(=O)c1cc(C(=O)O)c(NCc2ccco2)cc1Cl,item: infections and infestations,healthy men,"oral, 8 days, treatment-emergent, crossover trial",,subjects with adverse event,0%
NC1(C(=O)N[C@@H](CCO)c2ccc(Cl)cc2)CCN(c2nc[nH]c3nccc2-3)CC1,,metastatic CRPC patients,"320 mg b.i.d., any grade, treatment-related, added: enzalutamide 160 mg daily",,incidence of SIRS,0%
O=C(NCc1cc[nH]n1)c1ccc(C2CCCCC2)cc1,hepatocyte stability,cryopreserved mouse hepatocytes,1 µM,,hepatic clearance,81 mL/min/kg
COc1cc(C(=O)N2CCC3(CC2)CC(=O)c2c(cnn2C(C)C)C3)cc(-c2ccc(C(=O)O)cc2)n1,item: HDL cholesterol,"human, fasting serum","100 mg every 12 h, day 13, adjusted geometric mean",baseline: baseline and placebo,placebo-adjusted change from baseline,-19.6%
